Assay results gathered from unrelated publications.
“And” joins repeats or separate records; there may be more than shown. ± marks the error that the study gave.
folP: Dihydropteroate synthase (folP, Bacteria, UniProt P0AC13)
Chain of UniProt P0AC13 (whole entry, looked up): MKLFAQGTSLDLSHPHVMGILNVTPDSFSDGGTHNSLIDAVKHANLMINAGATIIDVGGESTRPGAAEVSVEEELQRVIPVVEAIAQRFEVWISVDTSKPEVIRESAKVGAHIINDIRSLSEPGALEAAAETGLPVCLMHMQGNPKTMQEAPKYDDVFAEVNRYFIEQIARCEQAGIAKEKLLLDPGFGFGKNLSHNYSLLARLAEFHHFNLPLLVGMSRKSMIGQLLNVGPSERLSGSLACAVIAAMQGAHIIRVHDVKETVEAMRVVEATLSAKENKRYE
Induced myeloid leukemia cell differentiation protein Mcl-1 homolog residues 152-308: Induced myeloid leukemia cell differentiation protein Mcl-1 homolog, residues 152-308 (Mus musculus, UniProt P97287)
Chain of UniProt P97287 (152-308, looked up): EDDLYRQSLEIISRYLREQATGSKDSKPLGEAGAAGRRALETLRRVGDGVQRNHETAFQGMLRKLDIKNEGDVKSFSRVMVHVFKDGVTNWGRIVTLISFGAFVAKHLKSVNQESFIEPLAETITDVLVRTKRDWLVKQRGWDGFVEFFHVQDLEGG
T1: RNA aptamer; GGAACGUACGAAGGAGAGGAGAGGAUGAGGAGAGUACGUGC
Chain of UniProt P45983 (whole entry, looked up): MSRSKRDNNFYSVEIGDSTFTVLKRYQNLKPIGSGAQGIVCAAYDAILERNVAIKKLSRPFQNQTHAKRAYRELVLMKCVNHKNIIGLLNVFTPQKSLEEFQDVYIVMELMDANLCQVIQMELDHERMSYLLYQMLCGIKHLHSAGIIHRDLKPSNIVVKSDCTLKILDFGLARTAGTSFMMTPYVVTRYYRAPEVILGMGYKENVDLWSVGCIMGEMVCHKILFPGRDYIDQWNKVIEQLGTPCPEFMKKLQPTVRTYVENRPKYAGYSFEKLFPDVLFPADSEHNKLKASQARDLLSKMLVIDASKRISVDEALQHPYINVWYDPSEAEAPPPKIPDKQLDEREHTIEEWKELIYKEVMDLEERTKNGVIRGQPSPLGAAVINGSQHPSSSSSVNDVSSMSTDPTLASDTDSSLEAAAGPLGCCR
Chain of UniProt Q9EP89 (whole entry, looked up): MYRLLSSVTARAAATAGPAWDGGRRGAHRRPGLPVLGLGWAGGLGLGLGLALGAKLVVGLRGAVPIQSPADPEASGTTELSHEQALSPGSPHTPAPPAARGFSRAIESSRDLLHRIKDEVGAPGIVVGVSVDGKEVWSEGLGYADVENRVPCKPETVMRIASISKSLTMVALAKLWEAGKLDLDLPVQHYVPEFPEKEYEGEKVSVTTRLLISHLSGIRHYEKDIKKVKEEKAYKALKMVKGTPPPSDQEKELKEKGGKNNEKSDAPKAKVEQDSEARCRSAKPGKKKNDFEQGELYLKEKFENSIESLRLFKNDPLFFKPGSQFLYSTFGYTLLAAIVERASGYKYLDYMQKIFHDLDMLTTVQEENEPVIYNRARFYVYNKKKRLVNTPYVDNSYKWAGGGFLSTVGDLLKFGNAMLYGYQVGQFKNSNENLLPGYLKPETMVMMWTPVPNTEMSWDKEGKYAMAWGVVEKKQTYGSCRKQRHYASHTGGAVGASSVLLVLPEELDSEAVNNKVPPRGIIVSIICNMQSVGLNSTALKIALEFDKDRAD
Chain of UniProt Q9NZQ7 (whole entry, looked up): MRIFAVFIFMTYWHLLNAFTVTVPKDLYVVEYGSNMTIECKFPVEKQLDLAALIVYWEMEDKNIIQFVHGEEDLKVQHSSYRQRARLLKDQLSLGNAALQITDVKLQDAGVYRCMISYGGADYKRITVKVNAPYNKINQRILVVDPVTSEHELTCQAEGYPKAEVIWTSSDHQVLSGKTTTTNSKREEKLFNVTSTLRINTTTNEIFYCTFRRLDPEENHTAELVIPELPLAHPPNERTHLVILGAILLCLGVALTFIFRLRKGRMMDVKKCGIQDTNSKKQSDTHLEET
Chain of UniProt O94762 (whole entry, looked up): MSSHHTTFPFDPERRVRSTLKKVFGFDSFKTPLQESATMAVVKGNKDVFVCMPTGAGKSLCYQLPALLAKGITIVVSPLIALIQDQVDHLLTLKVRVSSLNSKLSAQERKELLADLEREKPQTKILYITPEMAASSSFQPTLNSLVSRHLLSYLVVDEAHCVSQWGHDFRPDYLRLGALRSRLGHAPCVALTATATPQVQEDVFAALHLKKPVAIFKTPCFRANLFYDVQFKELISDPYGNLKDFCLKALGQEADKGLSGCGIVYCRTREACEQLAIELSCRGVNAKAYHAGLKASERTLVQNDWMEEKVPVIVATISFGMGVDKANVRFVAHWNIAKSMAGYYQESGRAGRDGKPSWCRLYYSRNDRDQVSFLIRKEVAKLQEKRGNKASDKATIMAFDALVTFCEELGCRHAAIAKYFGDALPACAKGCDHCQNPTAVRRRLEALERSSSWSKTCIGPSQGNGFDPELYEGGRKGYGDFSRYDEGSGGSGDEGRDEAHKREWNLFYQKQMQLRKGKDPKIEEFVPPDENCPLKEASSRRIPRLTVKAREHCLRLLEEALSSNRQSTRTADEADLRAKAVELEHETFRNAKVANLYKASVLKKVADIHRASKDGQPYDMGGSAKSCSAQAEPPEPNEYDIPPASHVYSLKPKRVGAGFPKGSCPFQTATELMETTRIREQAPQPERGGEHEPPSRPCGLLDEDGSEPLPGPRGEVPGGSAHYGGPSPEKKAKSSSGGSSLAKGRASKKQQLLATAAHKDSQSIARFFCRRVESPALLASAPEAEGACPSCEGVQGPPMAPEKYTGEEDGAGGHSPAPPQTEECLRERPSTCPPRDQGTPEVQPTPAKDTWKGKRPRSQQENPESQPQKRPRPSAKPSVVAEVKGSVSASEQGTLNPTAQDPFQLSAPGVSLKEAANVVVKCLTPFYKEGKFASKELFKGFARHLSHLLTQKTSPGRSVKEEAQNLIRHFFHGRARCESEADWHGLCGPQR
Chain of UniProt P30988 (whole entry, looked up): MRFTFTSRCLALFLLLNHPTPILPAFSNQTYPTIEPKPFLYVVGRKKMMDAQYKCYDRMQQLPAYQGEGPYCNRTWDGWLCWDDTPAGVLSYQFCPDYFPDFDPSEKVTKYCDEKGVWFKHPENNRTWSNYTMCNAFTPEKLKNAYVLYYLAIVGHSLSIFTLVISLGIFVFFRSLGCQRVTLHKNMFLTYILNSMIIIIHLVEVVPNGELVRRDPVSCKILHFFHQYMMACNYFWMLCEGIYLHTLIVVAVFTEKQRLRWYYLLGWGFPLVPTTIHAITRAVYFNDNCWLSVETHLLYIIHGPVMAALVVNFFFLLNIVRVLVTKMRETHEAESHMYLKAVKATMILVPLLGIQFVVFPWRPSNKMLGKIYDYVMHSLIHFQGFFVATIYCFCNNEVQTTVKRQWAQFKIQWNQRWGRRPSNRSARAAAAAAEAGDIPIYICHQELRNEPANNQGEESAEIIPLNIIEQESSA
Chain of UniProt O15151 (whole entry, unmodified, looked up): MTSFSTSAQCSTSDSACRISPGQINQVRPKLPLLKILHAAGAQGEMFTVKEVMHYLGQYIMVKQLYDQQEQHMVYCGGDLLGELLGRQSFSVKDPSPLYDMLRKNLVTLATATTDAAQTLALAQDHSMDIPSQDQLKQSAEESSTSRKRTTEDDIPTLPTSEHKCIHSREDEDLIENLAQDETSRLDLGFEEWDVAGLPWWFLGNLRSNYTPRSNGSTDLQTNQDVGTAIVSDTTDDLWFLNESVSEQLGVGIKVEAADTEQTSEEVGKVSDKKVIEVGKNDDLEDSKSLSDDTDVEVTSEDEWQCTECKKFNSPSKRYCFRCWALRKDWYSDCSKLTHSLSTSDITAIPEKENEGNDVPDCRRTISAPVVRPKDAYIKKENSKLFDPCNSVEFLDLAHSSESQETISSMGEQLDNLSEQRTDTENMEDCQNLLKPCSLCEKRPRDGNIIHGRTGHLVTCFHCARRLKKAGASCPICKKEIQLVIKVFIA
Chain of UniProt Q14145 (whole entry, looked up): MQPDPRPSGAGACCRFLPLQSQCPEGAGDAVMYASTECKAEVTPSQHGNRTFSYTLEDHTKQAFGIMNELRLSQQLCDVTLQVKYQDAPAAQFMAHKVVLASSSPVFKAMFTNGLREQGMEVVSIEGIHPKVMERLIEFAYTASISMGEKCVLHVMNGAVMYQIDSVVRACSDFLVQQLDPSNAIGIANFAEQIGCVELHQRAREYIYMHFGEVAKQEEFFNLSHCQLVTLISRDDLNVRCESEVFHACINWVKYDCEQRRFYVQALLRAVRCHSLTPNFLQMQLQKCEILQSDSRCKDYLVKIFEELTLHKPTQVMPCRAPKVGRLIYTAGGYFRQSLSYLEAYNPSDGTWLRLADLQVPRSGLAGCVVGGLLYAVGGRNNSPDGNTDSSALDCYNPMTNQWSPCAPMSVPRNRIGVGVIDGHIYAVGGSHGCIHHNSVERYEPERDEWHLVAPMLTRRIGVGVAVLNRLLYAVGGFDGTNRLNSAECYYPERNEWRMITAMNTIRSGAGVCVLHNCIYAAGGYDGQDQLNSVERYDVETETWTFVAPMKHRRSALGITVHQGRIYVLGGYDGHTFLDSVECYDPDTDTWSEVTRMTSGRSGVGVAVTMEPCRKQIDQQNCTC
Chain of UniProt O60894 (whole entry, looked up): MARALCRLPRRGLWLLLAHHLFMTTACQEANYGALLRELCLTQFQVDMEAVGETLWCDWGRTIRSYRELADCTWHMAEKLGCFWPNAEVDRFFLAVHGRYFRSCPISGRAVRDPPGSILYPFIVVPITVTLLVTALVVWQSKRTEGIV
Chain of UniProt P35222 (141-305, looked up): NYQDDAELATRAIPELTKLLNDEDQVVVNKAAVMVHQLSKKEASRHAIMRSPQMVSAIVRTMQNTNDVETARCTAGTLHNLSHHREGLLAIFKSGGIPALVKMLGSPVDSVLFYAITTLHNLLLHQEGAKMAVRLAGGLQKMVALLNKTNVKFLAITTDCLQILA
Chain of UniProt P07195 (whole entry, looked up): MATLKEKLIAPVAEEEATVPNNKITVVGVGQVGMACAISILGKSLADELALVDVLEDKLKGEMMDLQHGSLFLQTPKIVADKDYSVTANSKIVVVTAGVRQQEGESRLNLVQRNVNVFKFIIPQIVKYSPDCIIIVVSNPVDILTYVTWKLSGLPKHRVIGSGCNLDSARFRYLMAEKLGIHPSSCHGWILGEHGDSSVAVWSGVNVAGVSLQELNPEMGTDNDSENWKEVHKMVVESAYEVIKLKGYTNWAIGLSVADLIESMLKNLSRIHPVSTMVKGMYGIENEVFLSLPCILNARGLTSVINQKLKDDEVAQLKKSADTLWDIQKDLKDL

O=c1cc(-c2ccccc2)oc2cc(O[C@@H]3O[C@H](CO)[C@@H](O)[C@H](O)[C@H]3O)c(O)c(O)c12  binding index (COMT (Homo sapiens, UniProt P21964); UV; relative to: native over denatured target): 1.72
O=C(N1CCCC1)n1cc(-c2ccc(-c3ccccc3)cc2)nn1  SILAC ratio (Serine beta-lactamase-like protein LACTB, mitochondrial (Lactb, Mus musculus, UniProt Q9EP89); probe labelling, inhibitor, competitive ABPP-SILAC, measured: Lactb; mouse T cells; concentration not given, 4 h, in situ, single peptide; relative to: treated over DMSO, lower = more inhibition): 1.2 and 1.17 and 1.92 and 1.35 and 1.04
Cn1nc(COC(=O)c2ccccc2)c(=O)c2c(=O)[nH]c(N)nc21  melting temperature (folP; CETSA HiBiT; whole cells): 68.5 °C
CC(=O)N[C@@H](CCC(=O)O)C(=O)N[C@@H](CCC(=O)O)C(=O)N[C@@H](CCC(=O)O)C(=O)N[C@@H](Cc1c[nH]c2ccccc12)C(=O)N[C@@H](C)C(=O)N[C@@H](CCCNC(=N)N)C(=O)N[C@@H](CCC(=O)O)C(=O)N[C@H](C)C(=O)NCC(=O)N[C@@H](C)C(=O)N[C@@H](CCC(N)=O)C(=O)N[C@@H](CC(C)C)C(=O)N[C@@H](CCCNC(=N)N)C(=O)N[C@@H](CCCNC(=N)N)C(=O)N[C@@H](C)C(=O)N[C@@H](C)C(=O)N[C@@H](CC(=O)O)C(=O)N[C@@H](CC(=O)O)C(=O)N[C@@H](CC(C)C)C(=O)N[C@@H](CC(N)=O)C(=O)N[C@@H](C)C(=O)N[C@@H](CCC(N)=O)C(=O)N[C@@H](Cc1ccc(O)cc1)C(=O)N[C@@H](CCC(=O)O)C(=O)N[C@@H](CCCNC(=N)N)C(=O)N[C@@H](CCCNC(=N)N)C(=O)N[C@@H](CCCNC(=N)N)C(N)=O  ΔΔG (Induced myeloid leukemia cell differentiation protein Mcl-1 homolog residues 152-308; binding, SPR; relative to: PUMA peptide): 11.9 kJ/mol
COc1cc(Nc2nccc(-c3cnn4nc(OC)ccc34)n2)cc(C(F)(F)F)c1  remaining binding (Tyrosine-protein kinase ABL1, phosphorylated (ABL1, Homo sapiens, UniProt P00519, H396P); binding; 1 µM): 100%
COc1ccc(-c2ccc3c(c2)C(=Cc2sc4ccccc4[n+]2C)C=CN3C)cc1  Kd (T1, RNA aptamer; fluorescence titration): 0.05 nM
CC[C@@H](C)[C@@H](NC(=O)[C@@H](Cc1ccc(O)cc1)NC(=O)[C@H]1CCCN1C(=O)[C@@H](CCCNC(=N)N)NC(=O)[C@H](N)Cc1c[nH]cn1)C(=O)N[C@H](C)C(=O)N[C@H](Cc1c[nH]cn1)C(=O)NCC(=O)NCC(=O)NCC(=O)N[C@@H](CCCCNC(=O)CCCC[C@@H]1SC[C@@H]2NC(=O)N[C@@H]21)C(N)=O  binding rate (CD274 (Homo sapiens, UniProt Q9NZQ7); flow cytometry; hPD-L1-expressing cells; concentration not given): 1.56% and 1.49% and 1.79%
N#CN1CC[C@H](C(=O)Nc2nc3c(s2)CN(C(=O)CN=[N+]=[N-])CC3)C1  spectral count (LDHB (Homo sapiens, UniProt P07195); two-step pull-down LC-MS/MS; HEK293T; click chemistry probe): 5
CC(C)C[C@H](NC(=O)[C@H](CCCN)NC(=O)CNC(=O)[C@@H](NC(=O)[C@H](C)NC(=O)[C@@H]1CSCSC[C@H](NC(=O)CC[C@H](N)C(=O)O)C(=O)N[C@@H](CC(N)=O)C(=O)N[C@@H]([C@@H](C)O)C(=O)N[C@@H](C)C(=O)N[C@@H]([C@@H](C)O)C(=O)N1)[C@@H](C)O)C(=O)N[C@@H](C)C(=O)N[C@@H](CCC(=O)O)C(=O)N[C@@](C)(Cc1ccccc1)C(=O)N[C@@H](CC(C)C)C(=O)N[C@H](C(=O)N[C@@H](CCCNC(=N)N)C(=O)N[C@@H](CO)C(=O)N[C@@H](CO)C(=O)N[C@@H](CC(N)=O)C(=O)N(C)[C@@H](CC(N)=O)C(=O)N[C@@H](Cc1ccccc1)C(=O)NCC(=O)N1CCC[C@H]1C(=O)N[C@@H](CCCCNC(=O)CC[C@H](NC(=O)CC[C@H](NC(=O)CCCCCCCCCCCCCCCCCCC(=O)O)C(=O)O)C(=O)O)C(=O)N[C@@H](CC(C)C)C(=O)N1CCC[C@H]1C(=O)N1CCC[C@H]1C(=O)N[C@H](C(=O)N[C@@H](CCC(=O)O)C(=O)N[C@H](C(=O)NCC(=O)N[C@@H](CO)C(=O)N[C@@H](CC(N)=O)C(=O)N[C@H](C(=O)N[C@@H](Cc1ccc(O)cc1)C(N)=O)[C@@H](C)O)C(C)C)[C@@H](C)O)C(C)C  Emax (Amylin receptor AMY1, CALCR/RAMP1 (Homo sapiens, UniProt O60894+P30988); cAMP, agonist; UMUC3): > 80%
C#CCOC(=O)[C@]1(C)C=C(C(=O)OC(C)(C)C)C(=O)CC1  normalized kinase activity (MAPK8 (Homo sapiens, UniProt P45983); enzyme activity, D-SENSOR; 14.81 µM, single replicate): 0.838 and 0.938 and 0.855
CCN1CCN(Cc2ccc(C(=O)Nc3ccc(C)c(NCc4cnc5[nH]ccc5c4OC)c3)cc2C(F)(F)F)CC1  remaining binding (Tyrosine-protein kinase ABL1, non-phosphorylated (ABL1, Homo sapiens, UniProt P00519, H396P); binding, competition with immobilised ligand; 1 µM): 0.8%
CC(=O)N[C@H]1C(n2cc(-c3ccc(F)cc3F)nn2)O[C@H](COCc2ccccc2)[C@H](OCc2ccccc2)[C@@H]1OCc1ccccc1 (some centres unmarked)  ΔTm (Protein Mdm4 (MDM4, Homo sapiens, UniProt O15151); thermal stability, DSF; 30 µM): 2.25 °C
CC[C@H](C)[C@H](NC(=O)[C@H](CCC(=O)O)NC(=O)[C@H](CCCNC(=N)N)NC(=O)[C@H](C)NC(=O)[C@H](Cc1c[nH]c2ccccc12)NC(=O)[C@H](CCC(=O)O)NC(=O)[C@H](CCC(=O)O)NC(=O)[C@H](CCC(=O)O)NC(C)=O)C(=O)NCC(=O)N[C@@H](C)C(=O)N[C@@H](CCC(N)=O)C(=O)N[C@@H](CC(C)C)C(=O)N[C@@H](CCCNC(=N)N)C(=O)N[C@@H](CCCNC(=N)N)C(=O)N[C@@H](C)C(=O)N[C@@H](C)C(=O)N[C@@H](CC(=O)O)C(=O)N[C@@H](CC(=O)O)C(=O)N[C@@H](CC(C)C)C(=O)N[C@@H](CC(N)=O)C(=O)N[C@@H](C)C(=O)N[C@@H](CCC(N)=O)C(=O)N[C@@H](Cc1csc2ccccc12)C(=O)N[C@@H](CCC(=O)O)C(=O)N[C@@H](CCCNC(=N)N)C(=O)N[C@@H](CCCNC(=N)N)C(=O)N[C@@H](CCCNC(=N)N)C(N)=O  koff (Induced myeloid leukemia cell differentiation protein Mcl-1 homolog residues 152-308; binding, SPR; 0.2% DMSO): 0.0048 s⁻¹
CC[C@H](C)[C@H](NC(=O)[C@H](Cc1c[nH]cn1)NC(C)=O)C(=O)N[C@@H](CCCCN)C(=O)N[C@H](C(=O)N[C@@H](Cc1c[nH]cn1)C(=O)N[C@@H](CC(C)C)C(=O)N[C@@H](CC(=O)O)C(=O)N[C@@H](CCC(=O)O)C(=O)N[C@@H](CCC(=O)O)C(=O)N[C@H](C(=O)NCC(=O)N[C@@H](CCC(=O)O)C(=O)N[C@@H](CCCCN)C(=O)N[C@H](C(=O)N[C@@H](CO)C(=O)N[C@H](C(=O)N[C@H](C(=O)N[C@@H](CC(C)C)C(=O)N[C@@H](CC(=O)O)C(=O)N[C@H](C(N)=O)C(C)C)[C@@H](C)O)[C@@H](C)CC)[C@@H](C)O)[C@@H](C)O)[C@@H](C)O  binding stoichiometry (Kelch-like ECH-associated protein 1, Kelch domain (KEAP1, Homo sapiens, UniProt Q14145); ITC; concentration not given): 0.96
Cn1nc(C(=O)O)c(=O)c2c(=O)[nH]c(N)nc21  melting temperature (folP; CETSA HiBiT; Escherichia coli, whole cells): 57.1 °C
COc1ccccc1-c1ccncc1C(=O)Nc1nnc(OCc2ccc(Cl)cc2)s1  remaining activity (RECQL5 (Homo sapiens, UniProt O94762); ATPase activity, ADP-Glo; 3.8 µM, 1 h): 101%
C[C@@H](Nc1nc(N[C@H](C)C(F)(F)F)nc(-c2cccc(Cl)n2)n1)C(F)(F)F  maximum inhibition (IDH2 (Homo sapiens, UniProt P48735, R172K); 1 h preincubation): 88.6 ± 3.4%
CC1CCCN(CCCNC(=O)C2=Cc3sc4c(c3CS2)CCCC4)C1 (centres unmarked)  binding stoichiometry (Catenin beta-1, residues 141-305 (CTNNB1, Homo sapiens, UniProt P35222); ITC; concentration not given, 25 °C): 1.11
CCCCCC(O)/C=C/C=O (centres unmarked)  isoTOP-ABPP competition ratio (Large ribosomal subunit protein uL14 (Homo sapiens, UniProt P62829); competitive isoTOP-ABPP, measured: RPL23 cysteine peptide; Ramos soluble proteome; 100 µM, with: iodoacetamide probe; relative to: DMSO over compound-treated, higher = stronger cysteine blockade): 1.2
CC(CC(=O)O)c1nn(C)c2nc(N)[nH]c(=O)c2c1=O (centres unmarked)  melting temperature shift (folP; CETSA HiBiT; Escherichia coli, whole cells; concentration not given; relative to: DMSO): 5.03 °C

A few entries again:
CC[C@H](C)[C@H](NC(=O)[C@H](Cc1c[nH]cn1)NC(C)=O)C(=O)N[C@@H](CCCCN)C(=O)N[C@H](C(=O)N[C@@H](Cc1c[nH]cn1)C(=O)N[C@@H](CC(C)C)C(=O)N[C@@H](CC(=O)O)C(=O)N[C@@H](CCC(=O)O)C(=O)N[C@@H](CCC(=O)O)C(=O)N[C@H](C(=O)NCC(=O)N[C@@H](CCC(=O)O)C(=O)N[C@@H](CCCCN)C(=O)N[C@H](C(=O)N[C@@H](CO)C(=O)N[C@H](C(=O)N[C@H](C(=O)N[C@@H](CC(C)C)C(=O)N[C@@H](CC(=O)O)C(=O)N[C@H](C(N)=O)C(C)C)[C@@H](C)O)[C@@H](C)CC)[C@@H](C)O)[C@@H](C)O)[C@@H](C)O  binding stoichiometry (Kelch-like ECH-associated protein 1, Kelch domain (KEAP1, Homo sapiens, UniProt Q14145); ITC; concentration not given): 0.96
CC1CCCN(CCCNC(=O)C2=Cc3sc4c(c3CS2)CCCC4)C1 (centres unmarked)  binding stoichiometry (Catenin beta-1, residues 141-305 (CTNNB1, Homo sapiens, UniProt P35222); ITC; concentration not given, 25 °C): 1.11
